{"data": "Measured values of several laboratories", "note": "Numbered parts are unrelated; each lists some results of a single study."}
{"data": "Set 1", "target": "Replicase polyprotein 1ab, main protease (rep, Severe acute respiratory syndrome coronavirus 2, UniProt P0DTD1)", "observed": "enzyme activity", "mode": "inhibitor", "tested at": "20 µM", "setting": "primary screen"}
{"Compound": "Oc1ccc2ccccc2c1SSc1c(O)ccc2ccccc12", "inhibition [%]": 91.3}
{"Compound": "C=C(CC)C(=O)c1ccc(OCC(=O)O)c(Cl)c1Cl", "inhibition [%]": 29.7}
{"Compound": "CCCCCCCCN=c1ccn(CCCCCCCCCCn2ccc(=NCCCCCCCC)cc2)cc1", "inhibition [%]": 89.8}
{"Compound": "CCOc1cc(C(Nc2cc(C)ccn2)c2ccc3cccnc3c2O)ccc1OC (stereo not drawn)", "inhibition [%]": 98.9}
{"data": "Set 2", "target": "RING finger protein unkempt homolog, zinc fingers 1-6, GST-SBP tag (UNK, Homo sapiens, UniProt Q9C0B0, residues 30-357)", "method": "RNA Bind-n-Seq", "form": "RNA", "medium": "in vitro", "tested at": "not given", "setting": "RNA with constant flanks, human-mouse chimeric sites, ends assumed", "relative to": "input RNA pool", "reading": "higher = stronger binding", "Construct (chain)": "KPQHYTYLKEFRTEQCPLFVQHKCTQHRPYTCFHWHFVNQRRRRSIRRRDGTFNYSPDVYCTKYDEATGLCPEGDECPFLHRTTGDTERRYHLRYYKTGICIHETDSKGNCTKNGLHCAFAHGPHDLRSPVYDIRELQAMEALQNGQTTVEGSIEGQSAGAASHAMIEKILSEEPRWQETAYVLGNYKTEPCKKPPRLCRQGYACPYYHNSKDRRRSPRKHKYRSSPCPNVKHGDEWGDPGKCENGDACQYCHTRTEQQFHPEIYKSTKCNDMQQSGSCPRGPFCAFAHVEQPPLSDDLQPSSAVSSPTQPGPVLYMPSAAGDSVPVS"}
{"Strand": "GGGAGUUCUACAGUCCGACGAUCCUGUGUGUGCUGAAUAAAUGGCUUGUAAAGAAGUUUUCCAAGUUGUAAACCCAUGCUGUUAUUAUAGUUGCUGCAAAAUGUUCUUCCUGAUAUUGAUGUUUGUUUACAACUGAAGGUCUCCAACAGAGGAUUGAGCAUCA", "bound/input enrichment [ratio]": 0.191}
{"Strand": "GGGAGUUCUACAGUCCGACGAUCAAAGAGUGGAUAGAGUGUGCACACGGGAUCGGUUAUACCCGGGCGAAAAAGGAGUGCAAGAUAGAGUAUGAUGAUUUCGAAGAGUGCUUGCUUCGGUACAAAACGAUGAGGCGAAUGCAUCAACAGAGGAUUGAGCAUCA", "bound/input enrichment [ratio]": 1.07}
{"Strand": "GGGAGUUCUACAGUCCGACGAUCUAAGUCCUGUGCCAGCACUUCGCUCAUUAUAUUUUAAAUUCAAGAAAAAUAGUGUUUGUUUCCUGAUUAUUGUAUCCAAUACUUUGCCUAGUAUGUAACUCACUCUUACUGAUAAUAAAACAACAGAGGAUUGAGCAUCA", "bound/input enrichment [ratio]": 13.3}
{"Strand": "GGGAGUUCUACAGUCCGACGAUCGCUCUUGGCAAUGUAAUCAGCGCCUUGGGGGACAAGAGCAAGAGAGCCACCCAUGUCCCUUACAGAGACUCUAAGCUGACAAGACUCCUACAGGAUUCCCUUGGGGGUAACAGCCAAACCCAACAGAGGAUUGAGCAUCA", "bound/input enrichment [ratio]": 0.113}
{"Strand": "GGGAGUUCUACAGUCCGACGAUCAGGAGGAGGUUAAAGGGUGAGAGUGGGGUGGAAGACUGUGUCAUGGCUCUGGAGACACUGUUCAGUGUCCUGCUUUCUCUGUGCAGACUGAUGGCCCCCUACACACCCUUUCUGACUGAGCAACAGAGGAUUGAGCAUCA", "bound/input enrichment [ratio]": 0.0649}
{"Strand": "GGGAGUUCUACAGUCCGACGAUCCCCUCCCGGGCCACCCAGCCCGCCCAAGCUCCCCGCCGAGAUCCAGGUUUCUUCUUAUUUCAUAGCAAAUAAGAAAAAUGUUCUACGCACAUUUUGUCCUCAGUAAACGAGGGCCUCUGGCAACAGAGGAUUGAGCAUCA", "bound/input enrichment [ratio]": 0.586}
{"Strand": "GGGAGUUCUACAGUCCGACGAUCCUCAGAGAUGUGGCAUAUCAAUAUGUGAAAAAGGGGGCUCGUAUAUUUGUGGAAGGGAAAGUGGACUAUGGCGAGUACAUGGAUAAAAACAAUGUGAGGCGGCAAGCAACAACAAUCAUACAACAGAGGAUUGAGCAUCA", "bound/input enrichment [ratio]": 0.353}
{"Strand": "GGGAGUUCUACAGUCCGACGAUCGUGACAGGUGUUAAGAUUUCCCCUCAGCAAAGAAGUGCAGUAGUCACCAUAAUUCCAUCUGUGGUGAGUGCCAGUCAGAUUGUGGAGCUGGUCCCAGACCUCAGUUUAGAUACUGGGACUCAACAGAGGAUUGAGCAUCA", "bound/input enrichment [ratio]": 0.412}
{"data": "Set 3", "Molecule": "bismuth potassium citrate", "mode": "inhibitor", "tested at": "20 µM", "rep nsp13 helicase": "Replicase polyprotein 1ab, nsp13 helicase (rep, Severe acute respiratory syndrome coronavirus 2, UniProt P0DTD1)"}
{"target": "rep nsp13 helicase", "test": "helicase activity, refers to: nsp13 helicase", "inhibition [%]": 99.6}
{"target": "rep nsp13 helicase", "test": "helicase activity, refers to: nsp13 helicase", "conditions": "with DTT", "inhibition [%]": 1.97}
{"target": "Replicase polyprotein 1ab, nsp12 with nsp7/nsp8 (rep, Severe acute respiratory syndrome coronavirus 2, UniProt P0DTD1)", "test": "RdRp activity", "inhibition [%]": -6.17}
{"data": "Set 4", "organism": "Vesicular stomatitis virus", "observed": "pseudovirus infection", "method": "FDA-approved drug library screen", "tested at": "concentration not given", "setting": "SARS-CoV-2 spike pseudotype", "relative to": "vehicle"}
{"Structure (SMILES)": "CC(=O)[C@@]1(O)CC[C@H]2[C@@H]3CCC4=CC(=O)CC[C@]4(C)[C@H]3CC[C@@]21C", "GFP-positive cells": "106%"}
{"Structure (SMILES)": "C[C@@H]1[C@H](O)[C@@H](C)/C=C/C=C/CC/C=C/C=C/C=C/C=C/[C@H](O[C@H]2O[C@@H](C)[C@H](O)[C@@H](N)[C@H]2O)C[C@@H]2O[C@](O)(C[C@@H](O)[C@H](O)CC[C@@H](O)C[C@@H](O)C[C@@H](O)CC(=O)O[C@H]1C)C[C@H](O)[C@H]2C(=O)O", "GFP-positive cells": "95.8%"}
{"Structure (SMILES)": "NC(N)=O", "GFP-positive cells": "71.7%"}
{"note": "For quick reference, copied from above (set 4):"}
{"Structure (SMILES)": "CC(=O)[C@@]1(O)CC[C@H]2[C@@H]3CCC4=CC(=O)CC[C@]4(C)[C@H]3CC[C@@]21C", "GFP-positive cells": "106%"}
{"Structure (SMILES)": "C[C@@H]1[C@H](O)[C@@H](C)/C=C/C=C/CC/C=C/C=C/C=C/C=C/[C@H](O[C@H]2O[C@@H](C)[C@H](O)[C@@H](N)[C@H]2O)C[C@@H]2O[C@](O)(C[C@@H](O)[C@H](O)CC[C@@H](O)C[C@@H](O)C[C@@H](O)CC(=O)O[C@H]1C)C[C@H](O)[C@H]2C(=O)O", "GFP-positive cells": "95.8%"}
